{"data": "Experimental data collected from several papers", "ampC": "Beta-lactamase (ampC, Escherichia coli K-12, UniProt P00811)", "ERBB2": "Receptor tyrosine-protein kinase erbB-2 (ERBB2, Homo sapiens, UniProt P04626)", "note": "Lines come from different studies, so protocols differ. ± marks the error that the study gave.", "sequence of UniProt P00811 (whole entry, looked up)": "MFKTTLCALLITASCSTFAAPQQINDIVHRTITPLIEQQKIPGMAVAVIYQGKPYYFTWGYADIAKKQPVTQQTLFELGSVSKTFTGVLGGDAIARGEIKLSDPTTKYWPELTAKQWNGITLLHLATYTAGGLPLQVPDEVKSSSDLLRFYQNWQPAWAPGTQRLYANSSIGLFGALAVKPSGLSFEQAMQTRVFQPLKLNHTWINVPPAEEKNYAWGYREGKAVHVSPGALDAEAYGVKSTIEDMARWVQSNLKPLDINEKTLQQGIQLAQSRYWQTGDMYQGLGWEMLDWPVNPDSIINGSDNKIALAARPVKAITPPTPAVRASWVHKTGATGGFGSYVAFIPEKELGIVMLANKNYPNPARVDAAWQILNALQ", "sequence of UniProt P16885 (whole entry, looked up)": "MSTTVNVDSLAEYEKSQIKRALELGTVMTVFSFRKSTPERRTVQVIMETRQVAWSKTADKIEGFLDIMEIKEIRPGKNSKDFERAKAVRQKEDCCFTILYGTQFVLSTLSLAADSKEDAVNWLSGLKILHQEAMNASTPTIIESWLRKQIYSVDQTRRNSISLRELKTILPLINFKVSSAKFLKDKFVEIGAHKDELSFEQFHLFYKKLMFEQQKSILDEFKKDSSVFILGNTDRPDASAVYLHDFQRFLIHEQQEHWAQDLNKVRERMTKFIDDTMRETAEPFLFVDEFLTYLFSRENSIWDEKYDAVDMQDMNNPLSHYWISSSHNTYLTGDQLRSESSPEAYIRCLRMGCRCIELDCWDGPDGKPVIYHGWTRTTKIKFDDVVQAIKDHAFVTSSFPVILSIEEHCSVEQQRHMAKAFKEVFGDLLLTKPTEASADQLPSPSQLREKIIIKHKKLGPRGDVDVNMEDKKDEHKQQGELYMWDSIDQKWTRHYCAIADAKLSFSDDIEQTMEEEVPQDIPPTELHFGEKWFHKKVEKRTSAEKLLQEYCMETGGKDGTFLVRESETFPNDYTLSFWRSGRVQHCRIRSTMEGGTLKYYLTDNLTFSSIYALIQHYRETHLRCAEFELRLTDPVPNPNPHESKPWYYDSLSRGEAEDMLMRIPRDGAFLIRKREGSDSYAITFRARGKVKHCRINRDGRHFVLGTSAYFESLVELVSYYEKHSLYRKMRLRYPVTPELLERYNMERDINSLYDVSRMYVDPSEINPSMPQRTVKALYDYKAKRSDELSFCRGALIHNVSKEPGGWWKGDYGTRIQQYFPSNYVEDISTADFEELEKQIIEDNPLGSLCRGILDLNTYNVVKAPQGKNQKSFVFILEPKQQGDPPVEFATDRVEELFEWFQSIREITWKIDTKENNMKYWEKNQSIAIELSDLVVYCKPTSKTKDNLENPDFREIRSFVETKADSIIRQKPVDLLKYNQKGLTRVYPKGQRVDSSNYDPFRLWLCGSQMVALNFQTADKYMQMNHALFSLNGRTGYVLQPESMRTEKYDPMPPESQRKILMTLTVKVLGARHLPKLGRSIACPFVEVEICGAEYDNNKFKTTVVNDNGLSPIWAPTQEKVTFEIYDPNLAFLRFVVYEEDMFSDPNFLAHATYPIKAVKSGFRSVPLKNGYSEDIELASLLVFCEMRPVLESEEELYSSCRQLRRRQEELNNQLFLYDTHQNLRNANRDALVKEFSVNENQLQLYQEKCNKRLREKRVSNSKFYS", "sequence of UniProt P10997 (whole entry, looked up)": "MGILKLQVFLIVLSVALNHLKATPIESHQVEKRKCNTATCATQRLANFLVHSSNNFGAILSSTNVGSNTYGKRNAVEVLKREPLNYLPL", "sequence of UniProt P50552 (whole entry, looked up)": "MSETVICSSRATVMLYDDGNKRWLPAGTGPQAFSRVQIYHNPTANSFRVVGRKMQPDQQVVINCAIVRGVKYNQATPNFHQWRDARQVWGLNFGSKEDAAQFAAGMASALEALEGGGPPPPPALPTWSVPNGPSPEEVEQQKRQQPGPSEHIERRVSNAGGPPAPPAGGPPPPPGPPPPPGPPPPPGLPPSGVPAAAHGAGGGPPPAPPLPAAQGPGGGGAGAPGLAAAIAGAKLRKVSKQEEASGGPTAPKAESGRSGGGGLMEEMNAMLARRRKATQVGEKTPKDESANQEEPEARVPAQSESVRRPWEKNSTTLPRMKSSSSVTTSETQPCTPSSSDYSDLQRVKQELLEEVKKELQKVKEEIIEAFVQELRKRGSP", "sequence of UniProt P42681 (whole entry, looked up)": "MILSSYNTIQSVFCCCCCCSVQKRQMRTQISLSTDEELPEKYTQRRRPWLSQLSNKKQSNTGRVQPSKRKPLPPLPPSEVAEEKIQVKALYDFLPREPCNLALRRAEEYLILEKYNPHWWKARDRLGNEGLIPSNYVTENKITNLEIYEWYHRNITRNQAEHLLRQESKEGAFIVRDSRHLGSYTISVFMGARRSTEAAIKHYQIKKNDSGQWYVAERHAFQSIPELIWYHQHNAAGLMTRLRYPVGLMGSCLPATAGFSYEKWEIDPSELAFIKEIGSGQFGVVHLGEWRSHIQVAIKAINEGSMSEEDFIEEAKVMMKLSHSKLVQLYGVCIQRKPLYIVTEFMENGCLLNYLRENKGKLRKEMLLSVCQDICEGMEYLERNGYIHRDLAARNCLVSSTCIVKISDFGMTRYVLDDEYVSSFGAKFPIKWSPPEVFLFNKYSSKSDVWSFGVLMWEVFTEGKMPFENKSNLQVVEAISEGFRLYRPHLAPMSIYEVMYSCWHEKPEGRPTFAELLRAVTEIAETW", "sequence of UniProt Q9P286 (whole entry, looked up)": "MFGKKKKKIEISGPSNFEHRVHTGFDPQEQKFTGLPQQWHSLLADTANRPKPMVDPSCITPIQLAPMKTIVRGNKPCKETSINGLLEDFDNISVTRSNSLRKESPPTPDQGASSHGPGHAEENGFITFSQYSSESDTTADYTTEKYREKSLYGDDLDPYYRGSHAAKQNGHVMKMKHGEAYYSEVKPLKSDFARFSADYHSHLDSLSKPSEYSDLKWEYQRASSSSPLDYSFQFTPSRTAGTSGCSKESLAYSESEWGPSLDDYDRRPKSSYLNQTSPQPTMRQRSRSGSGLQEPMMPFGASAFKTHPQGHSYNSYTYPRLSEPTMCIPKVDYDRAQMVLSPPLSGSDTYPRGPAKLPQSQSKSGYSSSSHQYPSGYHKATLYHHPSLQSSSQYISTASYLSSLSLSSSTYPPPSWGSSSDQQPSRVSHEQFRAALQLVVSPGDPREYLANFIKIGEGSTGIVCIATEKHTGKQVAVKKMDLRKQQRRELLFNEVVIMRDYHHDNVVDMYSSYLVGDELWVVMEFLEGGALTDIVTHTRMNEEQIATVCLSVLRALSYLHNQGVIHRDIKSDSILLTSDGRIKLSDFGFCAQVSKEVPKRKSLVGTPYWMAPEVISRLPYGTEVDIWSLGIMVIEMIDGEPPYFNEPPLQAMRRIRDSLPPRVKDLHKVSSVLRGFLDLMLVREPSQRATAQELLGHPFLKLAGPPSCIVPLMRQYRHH", "sequence of UniProt P15056 (whole entry, looked up)": "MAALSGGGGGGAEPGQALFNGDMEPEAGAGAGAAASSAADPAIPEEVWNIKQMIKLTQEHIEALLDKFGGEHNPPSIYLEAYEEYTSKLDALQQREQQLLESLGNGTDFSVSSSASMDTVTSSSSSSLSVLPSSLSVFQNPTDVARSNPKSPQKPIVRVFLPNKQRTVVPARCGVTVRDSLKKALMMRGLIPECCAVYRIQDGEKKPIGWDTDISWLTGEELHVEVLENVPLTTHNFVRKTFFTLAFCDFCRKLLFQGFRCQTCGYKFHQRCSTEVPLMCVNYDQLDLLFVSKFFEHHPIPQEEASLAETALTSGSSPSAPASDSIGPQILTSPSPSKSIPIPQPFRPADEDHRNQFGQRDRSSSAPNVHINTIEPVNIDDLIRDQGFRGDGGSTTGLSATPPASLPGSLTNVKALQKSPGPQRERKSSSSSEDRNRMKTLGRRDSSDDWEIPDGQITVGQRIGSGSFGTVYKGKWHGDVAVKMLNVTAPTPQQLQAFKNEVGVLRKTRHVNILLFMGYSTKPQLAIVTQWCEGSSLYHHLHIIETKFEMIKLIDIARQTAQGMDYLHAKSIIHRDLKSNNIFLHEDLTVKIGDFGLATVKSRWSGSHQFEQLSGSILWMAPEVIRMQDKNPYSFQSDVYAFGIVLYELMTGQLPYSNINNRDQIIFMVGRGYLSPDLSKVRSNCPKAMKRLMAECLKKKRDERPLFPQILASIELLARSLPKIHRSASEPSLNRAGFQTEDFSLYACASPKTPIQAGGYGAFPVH", "sequence of UniProt P51957 (whole entry, looked up)": "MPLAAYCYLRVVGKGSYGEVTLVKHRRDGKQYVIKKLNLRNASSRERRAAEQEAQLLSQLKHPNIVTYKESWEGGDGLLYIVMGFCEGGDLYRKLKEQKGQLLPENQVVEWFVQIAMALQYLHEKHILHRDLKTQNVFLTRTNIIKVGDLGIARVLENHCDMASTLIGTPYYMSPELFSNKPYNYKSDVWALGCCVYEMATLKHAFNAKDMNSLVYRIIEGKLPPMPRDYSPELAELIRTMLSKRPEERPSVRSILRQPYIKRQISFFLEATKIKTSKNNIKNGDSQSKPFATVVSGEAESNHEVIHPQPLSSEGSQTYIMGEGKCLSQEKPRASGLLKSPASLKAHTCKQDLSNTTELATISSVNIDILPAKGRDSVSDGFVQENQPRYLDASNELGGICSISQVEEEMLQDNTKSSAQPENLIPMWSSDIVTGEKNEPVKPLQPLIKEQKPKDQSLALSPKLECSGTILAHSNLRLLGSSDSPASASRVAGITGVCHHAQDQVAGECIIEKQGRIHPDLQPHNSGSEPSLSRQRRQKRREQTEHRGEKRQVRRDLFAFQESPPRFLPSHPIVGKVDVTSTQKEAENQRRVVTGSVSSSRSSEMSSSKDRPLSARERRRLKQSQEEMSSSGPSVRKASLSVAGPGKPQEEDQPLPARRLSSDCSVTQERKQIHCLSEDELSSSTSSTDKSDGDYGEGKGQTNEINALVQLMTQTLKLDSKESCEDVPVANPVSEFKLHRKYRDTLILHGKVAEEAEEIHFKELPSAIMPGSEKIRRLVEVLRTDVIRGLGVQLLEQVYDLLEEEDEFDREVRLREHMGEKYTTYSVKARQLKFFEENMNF"}
{"Compound": "CC[C@H](C)[C@H](NC(=O)[C@@H](NC(=O)CC(NC(=O)[C@H](Cc1ccccc1)NC(=O)[C@H](C)NC(=O)[C@H](CCCNC(=N)N)NC(=O)CNC(=O)[C@@H]1CCCN1C(=O)CNC(=O)[C@@H](N)CCCNC(=N)N)c1ccccc1[N+](=O)[O-])[C@@H](C)O)C(=O)O (stereo partly drawn)", "tested on": "H-2 class I histocompatibility antigen, D-D alpha chain, 21 (H2-D1, Mus musculus, UniProt P01900)", "quantity": "Kd", "result": "31 µM"}
{"Compound": "CN(C)[C@H]1C[C@@]23CC[C@@]4(O2)C(=CC[C@]2(C)[C@@H](c5ccc6ccncc6c5)CC[C@H]24)C=C3[C@@H](O)[C@@H]1O", "tested on": "NEK4 (Homo sapiens, UniProt P51957)", "assay": "ATP probe labelling, inhibitor, KiNativ profiling", "conditions": "1 µM", "quantity": "inhibition", "result": "4.2%"}
{"Compound": "C=CC1CN(Cc2ccccn2)C(=O)C2CCCC1N2S(=O)(=NC1C=CCCC1)c1cc(Cl)cc(Cl)c1 (mixture of isomers)", "tested on": "uncharacterized protein, residues 23-253 (Pseudomonas aeruginosa, UniProt Q9HYX8)", "assay": "binding, competitive fluorescence polarization", "conditions": "30 min, protein 40 nM, together with: fluorescent tracer 1 nM", "quantity": "Kd", "result": "> 40 µM"}
{"Compound": "NCC(O)(c1ccccc1)c1ccccc1", "tested on": "ampC", "quantity": "Kd", "result": "2200 µM"}
{"Compound": "CC(C)[C@H]1NC(=O)C[C@H]2/C=C/CCSSC[C@@H](NC1=O)C(=O)N[C@H](Cc1cccc3ccccc13)C(=O)NCC(=O)O2", "tested on": "TXK (Homo sapiens, UniProt P42681)", "assay": "enzyme activity, inhibitor", "conditions": "10 µM", "quantity": "inhibition", "result": "12.3%"}
{"Compound": "CC[C@H](C)[C@H](NC(=O)[C@H](C)NC(=O)CNC(=O)[C@H](Cc1ccccc1)NC(=O)[C@H](CC(N)=O)NC(=O)[C@H](CC(N)=O)NC(=O)[C@H](CO[C@@H]1O[C@H](CO)[C@@H](O)[C@H](O)[C@H]1NC(C)=O)NC(=O)[C@H](CO)NC(=O)[C@H](Cc1c[nH]cn1)NC(=O)[C@@H](NC(=O)[C@H](CC(C)C)NC(=O)[C@H](Cc1ccccc1)NC(=O)[C@H](CC(N)=O)NC(=O)[C@H](C)NC(=O)[C@@H](N)CC(C)C)C(C)C)C(=O)N[C@@H](CC(C)C)C(N)=O", "tested on": "IAPP (Homo sapiens, UniProt P10997)", "assay": "binding, SPR", "quantity": "Kd", "result": "169 ± 7.4 µM"}
{"Compound": "CC[C@H](C)[C@H](NC(=O)[C@H](CCC(=O)O)NC(=O)[C@H](CCC(=O)O)NC(=O)[C@H](Cc1ccccc1)NC(=O)[C@H](CCCCN)NC(=O)[C@@H]1CCCN1C(=O)[C@H](Cc1c[nH]cn1)NC(=O)[C@H](CCCCN)NC(=O)[C@H](CO)NC(=O)[C@H](CC(C)C)NC(=O)[C@H](Cc1c[nH]cn1)NC(C)=O)C(=O)N[C@@H](CC(C)C)C(=O)N[C@H](C(=O)N[C@@H](CCCNC(=N)N)C(=O)N[C@@H](CC(C)C)C(=O)N[C@@H](CCCNC(=N)N)C(=O)N[C@@H](CC(C)C)C(=O)N[C@@H](CCC(N)=O)C(N)=O)[C@@H](C)O", "tested on": "Calmodulin-1, C-lobe (CALM1, Homo sapiens, UniProt P0DP23)", "assay": "isothermal titration calorimetry", "system": "calmodulin C-lobe fragment", "conditions": "together with: 1 mM CaCl2", "quantity": "Kd", "result": "3.22 µM"}
{"Compound": "O=C1NC2(CC2)COc2ncc(F)cc2[C@H]2COCCN2c2ccn3ncc1c3n2", "system": "Sprague-Dawley rat, male, serum", "conditions": "oral, 10 mg/kg/day, 4 weeks daily, end of treatment", "quantity": "pancreatic amylase activity", "result": "1870 ± 499 U/L"}
{"Compound": "O=C(N[C@@H]1c2ccccc2C[C@H]1N1CCCC1)c1ccc(-c2ccnc3[nH]ccc23)nc1", "tested on": "PAK5 (Homo sapiens, UniProt Q9P286)", "assay": "binding, competition with immobilised ligand", "quantity": "Kd", "result": "0.18 µM"}
{"Compound": "COc1ccccc1-c1n[nH]c2nc(NC3CCN(C(=O)Cc4ccc(F)cc4F)CC3)ncc12", "assay": "bead binding, competition bead pull-down, refers to: LMJF.03.0190", "system": "Leishmania donovani axenic amastigote extract", "conditions": "10 µM", "scale": "relative to: vehicle", "quantity": "relative abundance", "result": 0.74}
{"Compound": "CC(=O)N[C@@H](CO)C(=O)N[C@@H](Cc1ccccc1)C(=O)N[C@@H](CCC(=O)O)C(=O)N[C@@H](Cc1ccccc1)C(=O)N1CCC[C@H]1C(=O)N1CCC[C@H]1C(=O)N1CC[C@@H]2C=C[C@H]3CC[C@@H](C(=O)N[C@H](C(=O)N[C@@H](CCC(=O)O)C(=O)N[C@@H](CC(=O)O)C(=O)N[C@@H](CCC(=O)O)C(=O)N[C@@H](CC(C)C)C(N)=O)[C@@H](C)O)N3C(=O)[C@H]21", "tested on": "VASP (Homo sapiens, UniProt P50552)", "assay": "binding, fluorescence", "quantity": "Kd", "result": "5.7 µM"}
{"Compound": "CC[C@H](C)[C@H](NC(=O)[C@H](CCCCNC(=O)CN(CCNC(=O)CN(CCNC(=O)CN(CCNC(=O)CN(CCNC(=O)[C@H](CCCNC(=N)N)NC(C)=O)C(=O)Cn1ccc(N)nc1=O)C(=O)Cn1cnc2c(=O)[nH]c(N)nc21)C(=O)Cn1cnc2c(=O)[nH]c(N)nc21)C(=O)Cn1ccc(N)nc1=O)NC(=O)[C@H](C)NC(=O)[C@H](CCCNC(=N)N)NC(=O)[C@H](CCCCN)NC(=O)[C@H](CCC(N)=O)NC(=O)[C@H](CCC(N)=O)NC(=O)[C@H](CC(N)=O)NC(=O)[C@@H](NC(=O)[C@H](CC(C)C)NC(=O)[C@H](CC(N)=O)NC(=O)[C@@H]1CCCN1C(=O)[C@H](CC(=O)O)NC(=O)[C@H](CC(C)C)NC(=O)[C@H](C)NC(=O)[C@H](C)NC(=O)[C@H](CCC(=O)NCCN(CC(=O)NCCN(CC(=O)NCCN(CC(=O)NCCN(CC(=O)N[C@@H](CCCNC(=N)N)C(N)=O)C(=O)Cn1cnc2c(=O)[nH]c(N)nc21)C(=O)Cn1ccc(N)nc1=O)C(=O)Cn1ccc(N)nc1=O)C(=O)Cn1cnc2c(=O)[nH]c(N)nc21)NC(=O)[C@H](Cc1c[nH]c2ccccc12)NC(=O)[C@H](Cc1ccc(O)cc1)NC(=O)[C@H](CCCNC(=N)N)NC(=O)[C@H](CC(N)=O)NC(=O)[C@H](CCCNC(=N)N)NC(=O)[C@H](CCSC)NC(=O)[C@H](CCC(=O)O)NC(=O)[C@H](CCCCN)NC(=O)[C@H](CO)NC(=O)[C@H](Cc1ccccc1)NC(C)=O)[C@@H](C)O)C(=O)N[C@@H](CCCNC(=N)N)C(=O)N[C@@H](CO)C(=O)N[C@H](C(=O)N[C@@H](Cc1ccc(O)cc1)C(=O)N[C@@H](CCC(=O)O)C(=O)N[C@@H](CCC(=O)O)C(=O)NCC(=O)N[C@@H](CCC(=O)O)C(N)=O)[C@@H](C)CC", "tested on": "ERBB2", "assay": "binding, SPR", "quantity": "Kd", "result": "0.005 µM"}
{"Compound": "CC(C)(C)C(=O)OCOP(=O)(OCOC(=O)C(C)(C)C)C1CCCN(O)C1=O (stereo not drawn)", "tested on": "HOP-62", "quantity": "GI50", "result": "487 nM"}
{"Compound": "O=C1OC(=O)C2C3C=CC(C3)C12 (stereo not drawn)", "tested on": "ampC", "quantity": "Kd", "result": "1900 µM"}
{"Compound": "CC[C@H](C)[C@H](NC(=O)[C@H](CCCCN)NC(=O)[C@H](C)NC(=O)[C@H](CCCNC(=N)N)NC(=O)[C@H](CCCCN)NC(=O)[C@H](CCC(N)=O)NC(=O)[C@H](CCC(N)=O)NC(=O)[C@H](CC(N)=O)NC(=O)[C@@H](NC(=O)[C@H](CC(C)C)NC(=O)[C@H](CC(N)=O)NC(=O)[C@@H]1CCCN1C(=O)[C@H](CS)NC(=O)[C@H](CC(C)C)NC(=O)[C@H](C)NC(=O)[C@H](C)NC(=O)[C@H](CCC(=O)O)NC(=O)[C@H](Cc1c[nH]c2ccccc12)NC(=O)[C@H](Cc1ccc(O)cc1)NC(=O)[C@H](CCCNC(=N)N)NC(=O)[C@H](CC(N)=O)NC(=O)[C@H](CCCNC(=N)N)NC(=O)[C@H](CCSC)NC(=O)[C@H](CCC(=O)O)NC(=O)[C@H](CCCCN)NC(=O)[C@H](CO)NC(=O)[C@H](Cc1ccccc1)NC(C)=O)[C@@H](C)O)C(=O)N[C@@H](CCCNC(=N)N)C(=O)N[C@@H](CO)C(=O)N[C@H](C(=O)N[C@@H](Cc1ccc(O)cc1)C(=O)N[C@@H](CCC(=O)O)C(=O)N[C@@H](CCC(=O)O)C(=O)NCC(=O)N[C@@H](CCC(=O)O)C(N)=O)[C@@H](C)CC", "tested on": "ERBB2", "assay": "binding, SPR", "quantity": "Kd", "result": "0.047 µM"}
{"Compound": "CC[C@H](C)[C@H](NC(=O)[C@H](CCC(=O)O)NC(=O)[C@H](CCCNC(=N)N)NC(=O)[C@H](C)NC(=O)[C@H](C)NC(=O)[C@H](CCC(N)=O)NC(=O)[C@H](CCC(=O)O)NC(=O)[C@H](CCC(=O)O)NC(C)=O)C(=O)NCC(=O)N[C@@H](C)C(=O)N[C@@H](CCC(N)=O)C(=O)N[C@@H](CC(C)C)C(=O)N[C@@H](CCCNC(=N)N)C(=O)N[C@@H](CCCNC(=N)N)C(=O)N[C@@H](CCSC)C(=O)N[C@@H](C)C(=O)N[C@@H](CC(=O)O)C(=O)N[C@@H](CC(=O)O)C(=O)N[C@@H](CC(C)C)C(=O)N[C@@H](CC(N)=O)C(=O)N[C@@H](C)C(=O)N[C@@H](CCC(N)=O)C(=O)N[C@@H](Cc1ccc(O)cc1)C(=O)N[C@@H](CCC(=O)O)C(=O)N[C@@H](CCCNC(=N)N)C(N)=O", "tested on": "BFL-1 ΔC human", "assay": "binding, ITC", "quantity": "Kd", "result": "0.005 ± 0.003 µM"}
{"Compound": "CS(C)(=O)=Nc1ccc(-c2ccc(-c3nc4cc(O[C@@H]5CO[C@H]6[C@@H]5OC[C@H]6O)[nH]c4cc3F)cc2)cc1", "tested on": "BRAF (Homo sapiens, UniProt P15056)", "assay": "enzyme activity, inhibitor", "conditions": "10 µM", "quantity": "inhibition", "result": "5%"}
{"Compound": "CC[C@H](C)[C@H](NC(=O)c1ccc2c(c1)C(=O)OC21c2ccc(N(C)C)cc2Oc2cc(N(C)C)ccc21)C(=O)N[C@H](C(=O)N[C@@H](C)C(=O)N[C@@H](CC(C)C)C(=O)N[C@H](C(=O)N[C@@H](CO)C(=O)N[C@@H](CC(N)=O)C(=O)N[C@@H](CCC(N)=O)C(=O)N[C@@H](CCC(=O)O)C(=O)N[C@@H](Cc1ccc(OP(=O)(O)O)cc1)C(=O)N[C@@H](CC(C)C)C(=O)N[C@@H](CC(=O)O)C(=O)N[C@@H](CC(C)C)C(=O)N[C@@H](CO)C(=O)N[C@@H](CCSC)C(=O)N1CCC[C@H]1C(=O)N[C@@H](CC(C)C)C(=O)N[C@@H](CC(=O)O)C(=O)O)[C@@H](C)O)C(C)C", "tested on": "1-phosphatidylinositol 4,5-bisphosphate phosphodiesterase gamma-2, SH2 domain (PLCG2, Homo sapiens, UniProt P16885)", "assay": "binding", "quantity": "Kd", "result": "1.47 µM"}
{"note": "A few entries again:"}
{"Compound": "CC[C@H](C)[C@H](NC(=O)[C@H](CCC(=O)O)NC(=O)[C@H](CCC(=O)O)NC(=O)[C@H](Cc1ccccc1)NC(=O)[C@H](CCCCN)NC(=O)[C@@H]1CCCN1C(=O)[C@H](Cc1c[nH]cn1)NC(=O)[C@H](CCCCN)NC(=O)[C@H](CO)NC(=O)[C@H](CC(C)C)NC(=O)[C@H](Cc1c[nH]cn1)NC(C)=O)C(=O)N[C@@H](CC(C)C)C(=O)N[C@H](C(=O)N[C@@H](CCCNC(=N)N)C(=O)N[C@@H](CC(C)C)C(=O)N[C@@H](CCCNC(=N)N)C(=O)N[C@@H](CC(C)C)C(=O)N[C@@H](CCC(N)=O)C(N)=O)[C@@H](C)O", "tested on": "Calmodulin-1, C-lobe (CALM1, Homo sapiens, UniProt P0DP23)", "assay": "isothermal titration calorimetry", "system": "calmodulin C-lobe fragment", "conditions": "together with: 1 mM CaCl2", "quantity": "Kd", "result": "3.22 µM"}
{"Compound": "O=C1NC2(CC2)COc2ncc(F)cc2[C@H]2COCCN2c2ccn3ncc1c3n2", "system": "Sprague-Dawley rat, male, serum", "conditions": "oral, 10 mg/kg/day, 4 weeks daily, end of treatment", "quantity": "pancreatic amylase activity", "result": "1870 ± 499 U/L"}
{"Compound": "O=C(N[C@@H]1c2ccccc2C[C@H]1N1CCCC1)c1ccc(-c2ccnc3[nH]ccc23)nc1", "tested on": "PAK5 (Homo sapiens, UniProt Q9P286)", "assay": "binding, competition with immobilised ligand", "quantity": "Kd", "result": "0.18 µM"}
